Assay results of several laboratories.
Compare with care: the assays were run in different laboratories. Values joined by “and” are separate records of one study, mostly repeats; a detail may differ. ± gives the spread as reported.

CC(C)[C@H](C(=O)O[C@H](C#N)c1cccc(Oc2ccccc2)c1)c1ccc(Cl)cc1 — hepatic intrinsic clearance (IVIVE scaling; human adult): 1260 L/h/kg liver
COc1ccc2c(Sc3ccc(Cl)cc3)c(C(=O)NCCCN3CCCCC3)[nH]c2c1 — cytotoxicity efficacy (Vero-E6; CellTiter-Glo ATP; concentration not given, 72 h, retest 8-point duplicates; reference: DMSO 0%, hyamine -100%, more negative, more toxic): -75.6%
CN1CC[C@@H](c2c(O)cc(O)c3c(=O)cc(-c4ccc(C(F)(F)F)cc4Cl)oc23)[C@@H]1CO — patients with adverse event (refers to: febrile neutropenia; B-cell malignancies; oral, 100 mg, grade 3 to 4, intermittent dosing): 0%
CC[C@H](C)[C@H](NC(=O)[C@H](CCCCN)NC(=O)[C@H](CCC(=O)O)NC(=O)[C@H](CCCCN)NC(=O)[C@H](CO)NC(=O)[C@H](CCCCN)NC(=O)[C@H](CCCNC(=N)N)NC(=O)[C@H](Cc1ccccc1)NC(=O)[C@H](Cc1ccccc1)NC(=O)[C@H](CC(=O)O)NC(=O)CNC(=O)[C@H](CC(C)C)NC(=O)[C@@H](N)CC(C)C)C(=O)NCC(=O)N[C@@H](CCCCN)C(=O)N[C@@H](CCC(=O)O)C(=O)N[C@@H](Cc1ccccc1)C(=O)N[C@@H](CCCCN)C(=O)N[C@@H](CCCNC(=N)N)C(=O)N[C@H](C(=O)N[C@H](C(=O)N[C@@H](CCC(N)=O)C(=O)N[C@@H](CCCNC(=N)N)C(=O)N[C@H](C(=O)N[C@@H](CCCCN)C(=O)N[C@@H](CC(=O)O)C(=O)N[C@@H](Cc1ccccc1)C(=O)N[C@@H](CC(C)C)C(=O)N[C@@H](CCCNC(=N)N)C(=O)N[C@@H](CC(N)=O)C(=O)N[C@@H](CC(C)C)C(=O)N[C@H](C(=O)N1CCC[C@H]1C(=O)N[C@@H](CCCNC(=N)N)C(=O)N[C@H](C(=O)N[C@@H](CCC(=O)O)C(=O)N[C@@H](CO)C(=O)O)[C@@H](C)O)C(C)C)[C@@H](C)CC)C(C)C)[C@@H](C)CC — remaining intact peptide (LC-MS; buffer with human neutrophil elastase; 40 µM, 540 min, pH 7.5, 37 °C; reference: 0 h): 0.769% and 0.461% and 0.815%
CC(=O)c1c(C)c2cnc(Nc3ccc(C4CCN(CCS(C)(=O)=O)CC4)cn3)nc2n(C2CCCC2)c1=O — Tmax (beagle dog, both sexes, fasted, blood; oral gavage, 15 mg/kg, acidified methylcellulose vehicle, mean): 56.4 min
CC(Nc1nc(N2CCN(C)CC2)nc2ccccc12)c1ccccc1 (stereo not drawn) — cytotoxicity efficacy (Vero-E6; CellTiter-Glo ATP; concentration not given, 72 h, second round 5-point; reference: DMSO 0%, hyamine -100%, more negative, more toxic): 0%
CNC(=O)n1ccc2cc(Oc3ccnc(NC(=O)c4ccc(C5CCN(CCO)CC5)cc4)c3)c(OCCOC)cc21 — AUC(0-t) reduction (healthy human, plasma; oral, 35 mg, added: high-fat meal; reference: fasted): ~23%
CC(C)C[C@H](NC(=O)[C@H](CCCCN)NC(=O)OCC1c2ccccc2-c2ccccc21)C(=O)N[C@H](C(=O)N[C@@H](Cc1ccccc1)C(=O)N[C@@H](Cc1ccccc1)C(=O)N[C@@H](CCCCN)C(=O)NCC(=O)N[C@@H](Cc1ccccc1)C(=O)N[C@@H](C)C(=O)N[C@@H](Cc1c[nH]c2ccccc12)C(=O)N[C@@H](CC(N)=O)C(=O)N[C@H](C(=O)N[C@H]1CSSC[C@@H](C(=O)N[C@@H](Cc2c[nH]cn2)C(=O)N[C@@H](CCCNC(=N)N)C(=O)N[C@@H](CCCNC(=N)N)C(=O)N[C@@H](C)C(=O)N[C@@H](CC(N)=O)C(N)=O)NC(=O)[C@H](C(C)C)NC(=O)[C@H](CCCNC(=N)N)NC(=O)[C@H](C(C)C)NC(=O)CNC(=O)[C@H](CC(N)=O)NC(=O)[C@H](CCCNC(=N)N)NC(=O)[C@H](Cc2ccc(O)cc2)NC(=O)[C@H](C(C)C)NC1=O)C(C)C)C(C)C — eosinophils (ICR mouse, blood; intramammary, 10 mg/kg, day 5, 3 d dosing): 2.4 ± 0.24%
COc1cc2c(Oc3ccc4[nH]c(C)cc4c3F)ccnc2cc1OCC1(N)CC1 — Thrombocytopenia incidence (paediatric recurrent refractory sarcoma; 12 mg): 18.2%
O=C1Nc2cc3[nH]nc(-c4ccncc4)c3cc2CN1Cc1ccccc1 — patients with TEAE (refers to: QTc prolongation; patients with advanced solid tumours; intravenous, dose not given, both schedules pooled): 15%
CO[C@H]1C[C@@H]2CC[C@@H](C)[C@@](O)(O2)C(=O)C(=O)N2CCCC[C@H]2C(=O)O[C@H]([C@H](C)C[C@@H]2CC[C@@H](OC(=O)NCCOCCOCCOCCOCCOCCOCCOCCOCCC(=O)N3CCc4cc(Cn5nc(-c6ccc7oc(N)nc7c6)c6c(N)ncnc65)ccc4C3)[C@H](OC)C2)C[C@@H](O)[C@H](C)/C=C(\C)[C@@H](O)[C@@H](OC)C(=O)[C@H](C)C[C@H](C)/C=C/C=C/C=C/1C — decreased appetite incidence (patients with advanced solid tumours; intravenous, 8 mg weekly, any grade): 31.3%
O=C(c1ccc(F)c(F)c1Nc1ccc(I)cc1F)N1CC(O)([C@@H]2CCCCN2)C1 — duration of chorioretinopathy DLT (human; oral, 0.6 mg/kg): 50 days

A few entries again:
COc1ccc2c(Sc3ccc(Cl)cc3)c(C(=O)NCCCN3CCCCC3)[nH]c2c1 — cytotoxicity efficacy (Vero-E6; CellTiter-Glo ATP; concentration not given, 72 h, retest 8-point duplicates; reference: DMSO 0%, hyamine -100%, more negative, more toxic): -75.6%
